Experimental data from different studies.
Protocols differ between the studies behind these lines.
Target: Macrophage colony-stimulating factor 1 receptor (CSF1R, Homo sapiens, UniProt P07333)

The remaining activity of COc1c(OCCCN2CCOCC2)ccc2c1N=C(NC(=O)c1cnc(N)nc1)N1CCN=C21 is reported as 123% (kinase activity, inhibitor; 1 µM; relative to: untreated control).
For O=C(Cc1ccc(OCc2ccccc2)cc1)NC1(C(=O)O)CCN(C(=O)c2ccc(-c3cccc(Cl)c3)cc2)CC1, “activity vs control” read 81% (enzyme activity, inhibitor; 10 µM).
With NC(=O)[C@@H](O)C[C@H]1CCc2sc3ncnc(O[C@H]4CC[C@H](N5CCOCC5)CC4)c3c21 the inhibition was 1% (enzyme activity, inhibitor; 10 µM).
C[C@H]1CN(C(=O)c2cn(-c3ccnc(N)n3)c3cc(C#CC4(O)CCCCC4)ccc23)CCN1 has an inhibition of -3% (enzyme activity, inhibitor, FRET; 1 µM).
COC(=O)[C@@]1(C)C=C(C(=O)Nc2cccc(C(=O)Nc3ccc(Nc4nccc(-c5cccnc5)n4)c(C)c3)c2)C(=O)CC1 gave a remaining activity of 89% (enzyme activity, inhibitor, radiometric; 1 µM).
For O=C=[N][Ru-4]123([n]4c5ccc(O)cc5c5c6c(c7cc(F)c[n+]1c7c54)C(=O)NC6=O)[S+]1CC[S+]2CC[S+]3CC1 (stereo not drawn), the remaining activity was 68% (enzyme activity; 100 nM, human enzyme, together with: 10 µM ATP; relative to: untreated).
The remaining activity of COc1ccc(NC(=O)Nc2ccc3c(c2)C(=O)N(C(C)CO)CC(C)C(CN(C)Cc2ccc4c(c2)OCO4)O3)cc1 (stereo not drawn) is reported as 95% (kinase activity, KinaseProfiler; 0.03 µM, species human; relative to: control).
The inhibition of CN1CCN(c2ccc(Nc3ncc(Cl)c(Nc4ccccc4P(C)(C)=O)n3)cc2Br)CC1 is reported as 15.2% (enzyme activity, inhibitor; 0.1 µM).
With O=c1c(-c2ccc(Cl)c(CN3CCOCC3)c2)coc2cc(O)ccc12 the remaining activity was 93% (enzyme activity, inhibitor; 1 µM).
For C=CC(=O)Nc1cccc(-c2cnc3[nH]cc(C(=O)NC(C)(C)C)c3n2)c1, the inhibition was 37% (enzyme activity, inhibitor; 0.1 µM).
With C=CC(=O)N1Cc2nc(-c3cc(-c4cc(Cl)cnc4Cl)c(F)cc3F)n(-c3ccncn3)c2C1 the inhibition was 16% (cell-free assay; 1 µM).
The inhibition of Cc1cccc(O[C@H]2CCC[C@@H](C(C)CNCc3ccncc3)C2)c1 (relative stereo) is reported as 0% (cell-free assay; 10 µM).

For quick reference, copied from above:
The inhibition of CN1CCN(c2ccc(Nc3ncc(Cl)c(Nc4ccccc4P(C)(C)=O)n3)cc2Br)CC1 is reported as 15.2% (enzyme activity, inhibitor; 0.1 µM).
